Published values from different studies.
Numbered parts are unrelated; each lists some results of a single study. Substitutions count along the parent as printed.

Sample 1
Target: CCND2, cyclin fold, Cln2 fusion (human)
Method: yeast growth competition, sequencing
Medium: yeast
Notes: weak parent motif
Reference: not given
Reading: higher = stronger binding
Starting sequence: BRCA2 docking peptide (human); PSIKRNLLNEFDR; partner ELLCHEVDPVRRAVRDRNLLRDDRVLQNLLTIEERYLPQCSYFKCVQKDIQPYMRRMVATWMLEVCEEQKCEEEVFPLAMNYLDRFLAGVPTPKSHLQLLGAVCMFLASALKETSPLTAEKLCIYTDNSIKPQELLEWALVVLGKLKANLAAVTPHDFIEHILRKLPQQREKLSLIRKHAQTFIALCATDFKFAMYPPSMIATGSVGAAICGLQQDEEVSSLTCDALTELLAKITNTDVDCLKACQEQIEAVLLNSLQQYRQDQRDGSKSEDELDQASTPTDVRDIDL
Variant | normalised enrichment score
E10P | 0.103
L8H | 0.358
P1W | 0.688
R13C | 0.0079
I3G | 0.455
D12G | 0.34
N6H | 0.168
L8T | 0.275
R5M | 0.287
S2A | 0.186
L7H | -0.363
K4F | -0.0465

Sample 2
Target: PABPC1L2, full length, GST fusion (mouse, UniProt A0ABA7IW68)
Method: RNAcompete
Form: RNA
Medium: in vitro
Tested at: 20 nM
Notes: 7-mer, probes averaged, single round
Reference: mean of 7-mers
Reading: higher = stronger binding
Target sequence (chain): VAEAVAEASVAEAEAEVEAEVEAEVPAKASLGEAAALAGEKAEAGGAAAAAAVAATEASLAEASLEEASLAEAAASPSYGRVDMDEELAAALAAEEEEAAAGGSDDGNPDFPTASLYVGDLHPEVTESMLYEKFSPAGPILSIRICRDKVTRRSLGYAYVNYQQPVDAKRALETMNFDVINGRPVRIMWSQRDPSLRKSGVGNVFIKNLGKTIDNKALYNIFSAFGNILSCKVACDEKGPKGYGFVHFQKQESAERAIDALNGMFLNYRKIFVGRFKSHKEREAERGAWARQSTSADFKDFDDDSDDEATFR
Sequence | 7-mer Z-score
GCGCUAG | -0.119
AGGUUUC | -0.385
CCCUGCG | -0.246
CACAAAC | 0.671
AUACUUC | -0.137
UUAUCGU | -0.266
GGGAGUA | 0.1
UGCCUCA | -0.173
AGUCGGC | -0.159
AAGUCGA | 0.169
AGCUAGA | -0.0554
ACAUUUC | -0.13
GGCGAUU | 0.148
AUCCUAC | -0.202
ACACUGG | 0.0787
CGCCCAA | -0.275
AUCUGAG | -0.128
GAAUGAA | 0.104

Sample 3
Target: RING finger protein unkempt homolog, zinc fingers 1-6, GST-SBP tag (UNK, Homo sapiens, UniProt Q9C0B0, residues 30-357)
UniProt Q9C0B0, sequence (30-357, looked up): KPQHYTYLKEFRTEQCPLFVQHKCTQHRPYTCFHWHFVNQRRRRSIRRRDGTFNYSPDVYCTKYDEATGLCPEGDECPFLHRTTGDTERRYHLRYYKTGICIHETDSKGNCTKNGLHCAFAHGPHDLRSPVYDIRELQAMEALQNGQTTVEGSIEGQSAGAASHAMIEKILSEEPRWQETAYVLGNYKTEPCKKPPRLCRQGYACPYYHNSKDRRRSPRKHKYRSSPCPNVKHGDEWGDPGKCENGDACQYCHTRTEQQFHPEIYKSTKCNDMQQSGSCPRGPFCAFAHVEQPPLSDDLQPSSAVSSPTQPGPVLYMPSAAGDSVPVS
Method: RNA Bind-n-Seq
Form: RNA
Medium: in vitro
Tested at: not given
Notes: RNA with constant flanks, ends assumed
Reference: input RNA pool
Reading: higher = stronger binding
Constant ends, left off below: GGGAGUUCUACAGUCCGACGAUC … CAACAGAGGAUUGAGCAUCA
Sequence | bound/input enrichment
CAUAAAGUUUGAUGUGCAGUUUCCUGAAAACAACUGGAUCAACCCAGACAAGCUUUCUGAACCCGAAGAUCUUCUGCCAUCUAGACCGGAAGUUCCUAACAUAAUUGGAGAAACAGAGGA | 0.131 ratio
UCAAUAGAAGAGGAAAGGAAUGUCCCAUUGGCAACUGACUUGAUCCGAAUAAGUCAAUACCGGUUUACGGUUUCAGACUUGAUGAGAAUGGAAAAGAUUGUAUUGGAGAAGGUGUGUUGG | 0.14 ratio
CUGCCUCACCAGUUGGUACAUUUUGUUUUUGAAAGAGGUGGGAUCCAAAAGAGCUGUUUCCCGCCACACUCCAAGCACCUGAGACUUUGGGCACAAGGACACUUUUUUUUUUUUUUUUUU | 1.04 ratio
CUGAGGGCUCCAUGCUGAAGGCUCCCAUUUUCAGUUCCCUCCUGCCCAGGACUGCAUUGUUUUCCCGCCCCGAGGUGGUGGCACGGGCCCUCCCUCCCAGCGCUCUGGGAGCCACGCCUA | 0.376 ratio
AGUACUGGCAGUCGAGGCAGCUGCGGAUCAUCAGGAAGAACUGCUGAGAAAAGUGCUCACCGUUUCAAGUCUGAUCAGGUGAAGGUCAAGCAGGAACCUGGGACUGAAGAAGAGAUAUGC | 0.103 ratio
GAUUUUGAGACGGAGCACAAAUUGGACCCUGUAUUUGAUUCUCCACGGAUGUCCCGCCGCCGUUUGCGCCUGGCCACGACAGCAUGCACCCUGGGGGAUGGUGAGGCUGUGGGUGCCGAC | 0.223 ratio

Sample 4
Target: Interferon regulatory factor 5, full length, phosphomimetic (IRF5, Homo sapiens, UniProt Q13568-2, residues 1-514, S451D/S453D/S456D/S462D)
Method: protein-binding microarray
Form: double-stranded DNA, one strand shown
Medium: in vitro
Tested at: 940 nM top
Notes: 60-bp whole probe
Together with: salmon DNA 0.4 mg/ml
Reference: random background probes
Reading: higher = stronger binding
Constant ends, left off below: GCCTAGCAC … GTCTTGATTCGCTTGACGCTGCTG
Sequence | fitted relative affinity
TTAGGACCGCTACTGCTTTAGTGCTAG | -0.267 z-score
GACGATATCGGGACTGGATACGTGCTA | -0.126 z-score
TAGTATATACACTTATGACTGTGCTAG | -0.233 z-score
TCAGTGCTCCTTTTAATACTGTGCTAG | 0.198 z-score
TTATAACTGAGTCTCGATTAGTGCTAG | 2.71 z-score
TTACGACTGCTTTTCCTTTAGTGCTAG | 1.04 z-score
TTTGATTTCGGGTATCGATTAGTGCTA | 4.27 z-score
GACGAACTGGGGAGTGGAGACGTGCTA | 0.168 z-score
GACGGTATCGACCATCGGGACGTGCTA | 3.61 z-score
GACGGTATCGACTATCTGGACGTGCTA | 4.61 z-score
TTTTGCTTTCTTTTTGCACTGTGCTAG | 2.6 z-score
GACGAACTGAGTTGCGAGACGTGCTAG | -0.382 z-score
TTAGGTCTCGGTCTCGATTAGTGCTAG | 5.45 z-score
TTAGGTACCGGTTTCGGTTAGTGCTAG | 7.94 z-score
TCAGAGCTCTGTCTGGGACTGTGCTAG | -0.439 z-score
TTAGGACTCGGGTTTCGGTTAGTGCTA | 5.47 z-score
GACGGTATCCTTTTCCTGAGGTGCTAG | 0.352 z-score
GACGAACTAAGTTTCGAGACGTGCTAG | 3.33 z-score
GACGATTTCGGGTATCGAAACGTGCTA | 1.7 z-score
TCAAAACTCGTATGTGACACTGTGCTA | 0.0187 z-score
TTAGGTATCGGTATTGGTTAGTGCTAG | 8.92 z-score
TCATTTTTCATCATTGCACTGTGCTAG | 1.08 z-score
TTAGATATCGGGTATCAATTAGTGCTA | 0.718 z-score
GACGGTATCGGAATCGGGACGTGCTAG | 3.2 z-score
GTAGGTTTCCTTATCCTTTAGTGCTAG | 1.91 z-score

Sample 5
Target: Runt-related transcription factor 3, Runt domain (RUNX3, Homo sapiens, UniProt Q13761, residues 53-186)
UniProt Q13761, sequence (53-186, looked up): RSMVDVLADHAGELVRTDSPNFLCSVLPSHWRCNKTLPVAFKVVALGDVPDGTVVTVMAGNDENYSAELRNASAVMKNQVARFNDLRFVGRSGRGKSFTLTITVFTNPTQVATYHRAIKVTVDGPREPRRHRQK
Method: protein-binding microarray
Form: hairpin DNA
Medium: in vitro
Tested at: not given
Notes: whole hairpin DNA, median over replicate spots
Reference: not given
Reading: higher = stronger binding
Sequence | median fluorescence
CTCAGTTCTGTGGGGTGGACTCCTGTCCACCCCACAGAACTGAGACACTC (5mC at 30) | 4060 a.u.
GAGGCCCAACCCGAACAGCCTCCTGGCTGTTCGGGTTGGGCCTCACACTC (5mC at 12) | 4620 a.u.
GAGGCCTGTCGCGGTTGGCCTCCTGGCCAACCGCGACAGGCCTCACACTC (5mC at 12) | 5440 a.u.
GAGGCCCAACCGCAACTGCCTCCTGGCAGTTGCGGTTGGGCCTCACACTC | 9140 a.u.
GAGGCCTGTTGTGCGTGGCCTCCTGGCCACGCACAACAGGCCTCACACTC (5mC at 14 30) | 4810 a.u.
GAGGCCTGTAGTGGTTGGCCTCCTGGCCAACCACTACAGGCCTCACACTC | 4740 a.u.
GAGGCCTGTCGCGGTTGGCCTCCTGGCCAACCGCGACAGGCCTCACACTC (5mC at 42) | 6430 a.u.
CTCAGTTCTGTGGCCTGGACTCCTGTCCAGGCCACAGAACTGAGACACTC (5mC at 14) | 4510 a.u.
CTCAGCGCTGTGGGCTGGACTCCTGTCCAGCCCACAGCGCTGAGACACTC (5mC at 6 38) | 4420 a.u.
GAGGCCTGTTCTGGTTGGCCTCCTGGCCAACCAGAACAGGCCTCACACTC (5mC at 11) | 4610 a.u.
GAGGCCTGTCGCGCGTGGCCTCCTGGCCACGCGCGACAGGCCTCACACTC (5mC at 14 30) | 5520 a.u.
GAGGCCTGTCGCGCGTGGCCTCCTGGCCACGCGCGACAGGCCTCACACTC | 5380 a.u.
GAGGCCTGTTCCGGTTGGCCTCCTGGCCAACCGGAACAGGCCTCACACTC | 4770 a.u.
GAGGCCTGTTGAGGTTGGCCTCCTGGCCAACCTCAACAGGCCTCACACTC | 4730 a.u.

Sample 6
Target: Sal-like protein 4, full length isoform A (SALL4, Homo sapiens, UniProt Q9UJQ4, residues 1-1053)
UniProt Q9UJQ4, sequence (whole entry, looked up): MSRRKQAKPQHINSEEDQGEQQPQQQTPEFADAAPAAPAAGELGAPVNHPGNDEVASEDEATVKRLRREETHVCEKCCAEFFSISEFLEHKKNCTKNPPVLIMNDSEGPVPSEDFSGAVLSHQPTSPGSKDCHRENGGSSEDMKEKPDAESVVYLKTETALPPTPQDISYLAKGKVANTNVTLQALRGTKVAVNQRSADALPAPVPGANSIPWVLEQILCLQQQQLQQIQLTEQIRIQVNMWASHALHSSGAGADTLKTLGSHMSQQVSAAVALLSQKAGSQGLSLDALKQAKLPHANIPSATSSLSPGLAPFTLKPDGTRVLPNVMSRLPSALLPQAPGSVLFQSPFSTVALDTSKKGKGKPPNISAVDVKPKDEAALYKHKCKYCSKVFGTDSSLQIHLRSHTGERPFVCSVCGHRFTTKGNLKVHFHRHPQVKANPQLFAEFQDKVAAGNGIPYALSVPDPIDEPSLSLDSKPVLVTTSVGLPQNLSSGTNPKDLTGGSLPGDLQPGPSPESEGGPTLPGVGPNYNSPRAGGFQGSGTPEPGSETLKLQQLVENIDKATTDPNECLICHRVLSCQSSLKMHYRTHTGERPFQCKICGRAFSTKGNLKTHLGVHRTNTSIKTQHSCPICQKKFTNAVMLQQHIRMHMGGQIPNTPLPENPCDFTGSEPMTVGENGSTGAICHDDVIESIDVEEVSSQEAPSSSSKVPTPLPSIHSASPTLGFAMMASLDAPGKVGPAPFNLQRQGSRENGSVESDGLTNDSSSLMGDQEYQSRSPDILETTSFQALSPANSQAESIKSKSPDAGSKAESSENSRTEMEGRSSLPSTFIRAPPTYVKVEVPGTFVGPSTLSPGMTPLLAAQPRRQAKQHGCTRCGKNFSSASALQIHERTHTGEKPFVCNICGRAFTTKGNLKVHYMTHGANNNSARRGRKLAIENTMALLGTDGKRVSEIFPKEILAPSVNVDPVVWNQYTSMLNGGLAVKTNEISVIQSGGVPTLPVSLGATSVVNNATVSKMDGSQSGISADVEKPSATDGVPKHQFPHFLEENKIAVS
Method: universal PBM
Form: double-stranded DNA, one strand shown
Medium: in vitro
Tested at: 600 nM
Notes: 8-mer, flanks averaged, mean of replicates
Reading: higher = stronger binding
Sequence | E-score
TAAGATCA | 0.149
CGAAGACA | -0.176
AATGAGCT | 0.1
CAAGGCGC | -0.22
AGATTCAT | 0.236
AGTAAGTC | -0.108
AACATGAC | 0.0314
GTTTGACA | 0.207
GAGCCTAA | -0.0133
AGTACACG | -0.136
ACGGCGCC | -0.26
ATTAGACA | 0.287
GTGTTTCA | 0.0612
AACTAGAG | 0.0364
AGAACCCC | -0.226
CAGGGGAA | -0.226

Sample 7
Target: Fragile X messenger ribonucleoprotein 1, C-terminal low-complexity region (Fmr1, Mus musculus, UniProt P35922)
Method: RNA Bind-n-Seq
Form: RNA
Medium: in vitro
Tested at: 200 nM
Notes: whole 134-nt RNA, ends assumed
Together with: 150 mM LiCl
Reference: input library
Reading: higher = stronger binding
All molecules: 7-deaza-guanosine replaces G
Constant ends, left off below: GGGAGUUCUACAGUCCGACGAUC … UGGAAUUCUCGGGUGUCAAGG
Sequence | log2 enrichment
CGGGAGGUGGAUUUUGUUUAUUUUUUUAGCUCAUUUCCAGGGGUGGGAAUUUUUUUUUAAUAUGUGUCAUGAAUAAAGUUGUUUUUGAAA | 0.711
UCCUGUGCUACACAUCGUAUGUACCGAAUCAAAUUUUUUUAAACCCCCAAACCCCCAAAAAAGUAUUAUGUUACGCCGUUCGGAUCUGCA | 1.42
UAACUUUCGAGGAGGAUCUGAUGGAUAUGGCAGUGGACGUGGAUUUGGGGAUGGCUAUAAUGGGUAUGGAGGAGGACCUGGAGGUGGCAA | 0.443
CAAGUCCUGUGCUACACAUCGUAUGUACCGAAUCGGGAAAAGGAAAAGGAAAAGGGAAAGUAUUAUGUUACGCCGUUCGGAUCUGCACUU | -1.38
UGCACACCGCCUUGCACAUAGCAGAGGCUCCGGGCUCACUCCUUCCUGGUGGGAAAGGAAGAUGCCUGUCCUCUCCGUGGAAGACCCUGG | -0.866
ACCAUGCAGGUGGGCAUCUUUGGGAAGUGGGGCAAGGGGGGGAUAGGGAGGGGGGUAACACUUUGGGAACAGUUGGUCCCAGGUCGUUUC | 1.34
UCCUGUGCUACACAUCGUAUGUACCGAAUCGGGGAAAAAAAGGGGUGGGGAAAAAGGGGAAAGUAUUAUGUUACGCCGUUCGGAUCUGCA | -1.96

Sample 8
Target: Histone acetyltransferase KAT6A, both winged helices, GST fusion (KAT6A, Homo sapiens, UniProt Q92794, residues 1-181)
Method: protein binding microarray
Form: double-stranded DNA, one strand shown
Medium: in vitro
Tested at: not given
Notes: 8-mer, flanks averaged, mean of 2 arrays, mostly near background
Reference: not given
Reading: higher = stronger binding
Residues (chain): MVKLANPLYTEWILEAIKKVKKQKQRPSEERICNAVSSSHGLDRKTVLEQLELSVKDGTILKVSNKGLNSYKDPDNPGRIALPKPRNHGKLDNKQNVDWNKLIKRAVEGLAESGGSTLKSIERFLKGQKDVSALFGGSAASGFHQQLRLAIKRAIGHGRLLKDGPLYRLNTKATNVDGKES
Sequence | E-score
CGTGGGTC | -0.0696
ATGCCTCA | -0.103
GGCTCCAA | -0.0635
ACAGGTCA | -0.0927
CGCTACCA | 0.17
ATCTTGCA | 0.0408
AGCGACAT | 0.0603
AAAGCGCG | 0.349
CCGTGTTA | 0.205
ACGAGGAT | -0.205
CACTGGTC | -0.031
TAGGGGGA | -0.238
AGGTATAA | -0.0628
CGGTGAGC | 0.0741
GGAATGCC | 0.107
CGTGGAAA | 0.138
AAAACTGA | -0.101
AAAGTTCA | -0.0889
ATCCGAAC | 0.0257
CAGCTGAG | -0.203
CCGCACTC | 0.194
ACCAATCA | -0.234
ATACAACC | 0.227
GCCTTTCA | 0.0758

Excerpt of the above (sample 1):
Variant | normalised enrichment score
L7H | -0.363
D12G | 0.34
S2A | 0.186
P1W | 0.688
K4F | -0.0465
R13C | 0.0079
I3G | 0.455
E10P | 0.103
